Measured values pooled from the literature.
Each numbered part is a random draw from the data of one study; scales do not carry over between parts. “And” joins repeats or separate records; there may be more than shown.
Sequence of UniProt P28335 (whole entry, looked up): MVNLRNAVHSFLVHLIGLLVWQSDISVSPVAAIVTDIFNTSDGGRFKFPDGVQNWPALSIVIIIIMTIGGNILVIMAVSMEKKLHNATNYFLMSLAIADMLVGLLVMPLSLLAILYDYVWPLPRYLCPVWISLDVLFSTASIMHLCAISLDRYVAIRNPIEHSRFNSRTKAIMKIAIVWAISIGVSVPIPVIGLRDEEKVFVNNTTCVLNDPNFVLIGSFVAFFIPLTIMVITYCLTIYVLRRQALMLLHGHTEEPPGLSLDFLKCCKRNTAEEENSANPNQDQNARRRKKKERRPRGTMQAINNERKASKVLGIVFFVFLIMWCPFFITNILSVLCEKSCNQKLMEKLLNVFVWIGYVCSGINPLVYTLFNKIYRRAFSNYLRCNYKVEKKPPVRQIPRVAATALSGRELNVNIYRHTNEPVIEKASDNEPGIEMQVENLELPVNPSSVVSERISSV
Sequence of UniProt P9WI81 (whole entry, looked up): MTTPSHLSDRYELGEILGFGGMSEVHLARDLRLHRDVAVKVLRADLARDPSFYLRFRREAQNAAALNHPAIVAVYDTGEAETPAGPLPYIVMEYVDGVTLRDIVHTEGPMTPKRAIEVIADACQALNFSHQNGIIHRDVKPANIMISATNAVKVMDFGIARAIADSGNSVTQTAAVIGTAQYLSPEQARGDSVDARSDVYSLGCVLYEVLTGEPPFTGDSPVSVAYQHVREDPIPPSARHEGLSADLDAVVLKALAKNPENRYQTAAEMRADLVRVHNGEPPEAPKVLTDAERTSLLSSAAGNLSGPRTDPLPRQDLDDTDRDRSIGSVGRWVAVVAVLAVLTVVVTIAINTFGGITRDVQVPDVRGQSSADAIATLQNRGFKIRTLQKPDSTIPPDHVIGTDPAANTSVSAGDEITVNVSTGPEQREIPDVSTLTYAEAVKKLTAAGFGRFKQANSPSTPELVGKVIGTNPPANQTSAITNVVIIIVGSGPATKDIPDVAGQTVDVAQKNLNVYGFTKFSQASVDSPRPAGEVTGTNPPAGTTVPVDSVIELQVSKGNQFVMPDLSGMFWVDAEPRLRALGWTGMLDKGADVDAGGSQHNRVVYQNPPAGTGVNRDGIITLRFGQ

Sample 1
Target: Calcium/calmodulin-dependent protein kinase type II subunit alpha (CAMK2A, Homo sapiens, UniProt Q9UQM7)
Sequence of UniProt Q9UQM7 (whole entry, looked up): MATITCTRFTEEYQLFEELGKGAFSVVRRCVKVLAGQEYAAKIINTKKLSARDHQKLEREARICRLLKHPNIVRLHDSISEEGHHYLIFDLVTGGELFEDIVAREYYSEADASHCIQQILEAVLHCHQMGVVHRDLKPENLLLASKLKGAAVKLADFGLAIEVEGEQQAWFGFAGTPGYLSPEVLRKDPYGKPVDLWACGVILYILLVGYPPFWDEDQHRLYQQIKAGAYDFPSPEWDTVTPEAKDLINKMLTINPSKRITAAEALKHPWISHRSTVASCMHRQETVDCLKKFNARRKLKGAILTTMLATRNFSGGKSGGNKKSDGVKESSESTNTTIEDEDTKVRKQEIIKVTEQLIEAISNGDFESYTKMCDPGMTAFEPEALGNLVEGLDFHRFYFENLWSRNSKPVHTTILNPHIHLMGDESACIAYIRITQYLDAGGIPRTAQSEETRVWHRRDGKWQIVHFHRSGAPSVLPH
Observed: enzyme activity
Mode: inhibitor
Concentration: 10 µM
Structure (SMILES)	inhibition
C[C@]12CC[C@H](O)C[C@@H]1CC[C@@H]1[C@@H]2CC[C@]2(C)C(=O)CC[C@@H]12	6%
COc1cc2c(cc1O)C[C@@H]1NCCc3cc(OC)c(O)c-2c31	-21%
COc1cc2c3c(c1OC)Oc1ccc(cc1)C[C@@H]1c4c(cc(OC)c(OC)c4Oc4ccc(cc4)C[C@H]3N(C)CC2)CCN1C	-5%

Sample 2
Structure (SMILES): CC(C)S(=O)(=O)c1ccc2nccc(Nc3ccc4sc(C5CCCC5)nc4c3)c2c1.Cl
cell line	assay	conditions	viability
L929 RIPK3 knockout	–	0.391 µM, together with: zVAD	101% and 103% and 110% and 109% and 104% and 108%
L929 RIPK3 knockout	–	25 µM, together with: zVAD	90.1% and 92.5% and 90.8% and 96% and 91.1%
L929	CCK-8	6.25 µM, together with: zVAD	102% and 104% and 103% and 108%
L929 RIPK3 knockout	–	0.391 µM	109% and 103% and 99.7% and 102%
L929	CCK-8	1.563 µM	98.9% and 97.6% and 104% and 100%
L929	CCK-8	6.25 µM	107% and 110% and 106%
L929 RIPK3 knockout	–	25 µM	84.4% and 90.3% and 93% and 88.8% and 102%
L929	CCK-8	25 µM, together with: zVAD	90.2% and 88.3% and 89.9% and 88.1% and 91.8%
L929 RIPK3 knockout	–	12.5 µM	103% and 104% and 98.9%
L929 RIPK3 knockout	–	1.563 µM	102% and 101% and 106% and 96%

Sample 3
Target: CRBN/Zinc finger protein Helios (Homo sapiens, UniProt Q96SW2+Q9UKS7)
Sequence of UniProt Q9UKS7 (whole entry, looked up): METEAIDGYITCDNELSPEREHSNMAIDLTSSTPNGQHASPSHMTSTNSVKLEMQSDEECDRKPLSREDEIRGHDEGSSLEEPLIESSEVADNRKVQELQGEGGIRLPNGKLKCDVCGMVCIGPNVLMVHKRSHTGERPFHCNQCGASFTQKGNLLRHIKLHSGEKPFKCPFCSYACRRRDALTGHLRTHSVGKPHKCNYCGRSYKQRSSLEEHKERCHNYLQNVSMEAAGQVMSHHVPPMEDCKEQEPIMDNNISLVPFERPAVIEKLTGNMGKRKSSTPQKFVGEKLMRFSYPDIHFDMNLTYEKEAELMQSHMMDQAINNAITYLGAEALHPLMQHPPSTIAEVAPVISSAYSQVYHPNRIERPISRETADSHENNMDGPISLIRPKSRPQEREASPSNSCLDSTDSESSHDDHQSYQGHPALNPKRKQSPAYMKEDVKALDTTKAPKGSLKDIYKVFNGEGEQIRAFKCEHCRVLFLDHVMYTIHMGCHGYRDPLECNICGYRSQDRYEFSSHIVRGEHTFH
Sequence of UniProt Q96SW2 (whole entry, looked up): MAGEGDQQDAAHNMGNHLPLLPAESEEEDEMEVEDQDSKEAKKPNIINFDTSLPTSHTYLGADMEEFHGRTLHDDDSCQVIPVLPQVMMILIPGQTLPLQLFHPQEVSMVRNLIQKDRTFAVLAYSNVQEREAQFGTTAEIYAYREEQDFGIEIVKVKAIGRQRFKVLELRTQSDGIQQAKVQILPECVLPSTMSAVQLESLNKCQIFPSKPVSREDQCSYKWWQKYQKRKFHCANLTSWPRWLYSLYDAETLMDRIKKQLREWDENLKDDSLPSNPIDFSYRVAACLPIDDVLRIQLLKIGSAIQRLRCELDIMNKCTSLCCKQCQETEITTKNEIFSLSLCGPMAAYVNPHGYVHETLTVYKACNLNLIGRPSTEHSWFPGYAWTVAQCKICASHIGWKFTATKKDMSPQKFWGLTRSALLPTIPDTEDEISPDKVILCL
Mode: degrader
Method: HiBiT
Cells: HEK293
Concentration: 370.37 nM
Compound	protein remaining [%]
O=C1CCC(N2Cc3c(ccc4c3OCC43CCCN(Cc4ccccc4)CC3)C2=O)C(=O)N1 (stereo not shown)	92.9
O=C1CCC(N2Cc3c(ccc4c3OCC43CCN(CC4CCCCC4)CC3)C2=O)C(=O)N1 (stereo not shown)	41.6
O=C1CCC(N2Cc3c(ccc4c3OCC43CCN(Cc4ccccc4)CC3(F)F)C2=O)C(=O)N1 (stereo not shown)	46.7

Sample 4
Target: Serine/threonine-protein kinase 33 (STK33, Homo sapiens, UniProt Q9BYT3)
Sequence of UniProt Q9BYT3 (whole entry, looked up): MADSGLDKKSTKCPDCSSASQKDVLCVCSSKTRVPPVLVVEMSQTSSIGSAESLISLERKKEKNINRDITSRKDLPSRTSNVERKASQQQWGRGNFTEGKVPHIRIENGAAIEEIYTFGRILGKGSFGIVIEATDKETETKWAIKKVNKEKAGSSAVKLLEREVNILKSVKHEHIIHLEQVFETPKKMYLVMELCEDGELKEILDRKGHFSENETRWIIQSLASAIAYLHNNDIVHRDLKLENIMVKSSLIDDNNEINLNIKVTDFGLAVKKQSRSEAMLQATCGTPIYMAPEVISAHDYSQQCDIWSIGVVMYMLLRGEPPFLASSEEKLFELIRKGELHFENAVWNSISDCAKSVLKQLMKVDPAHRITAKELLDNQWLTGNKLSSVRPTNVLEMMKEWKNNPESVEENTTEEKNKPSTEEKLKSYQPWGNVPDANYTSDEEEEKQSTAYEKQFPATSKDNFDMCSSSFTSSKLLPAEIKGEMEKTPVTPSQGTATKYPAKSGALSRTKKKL
Observed: enzyme activity
Mode: inhibitor
Method: radiometric
Concentration: 0.5 µM
SMILES	remaining activity [%]
O=C1NC(=O)c2c1c1c3ccccc3[nH]c1n1cncc21	52.3
O=C1NC(=O)c2c1c1c3ccccc3[nH]c1c1[nH]c3cc(Br)ccc3c21	71.9
CCCNC(=O)Nc1ccc(Oc2ncnc3cc(OC)c(OC)cc23)cc1Cl	88.1

Mixed results
SMILES	target	assay	conditions	measurement	value
CCCCN(CCCC)C(=O)CN1C[C@H](c2cc(OC)c3c(c2)OCO3)[C@@H](C(=O)O)[C@@H]1CC(C)(C)CCC	pknB (Mycobacterium tuberculosis, UniProt P9WI81)	cell-free assay, competition with immobilised ligand	1 µM	remaining binding	85%
CN1C(=O)NC(=O)C(=CNc2ccc(Cl)cc2)C1=O	Bromodomain-containing protein 4, BD1 (BRD4, Homo sapiens, UniProt O60885)	acetyl-histone H4 peptide binding, AlphaScreen displacement	50 µM	inhibition	17.1%
O=C([C@H]1C[C@H](O)CN1c1ccc(Cl)cc1)N1CC2COCC(C1)N2Cc1ccc(Cl)cc1	HTR2C (Homo sapiens, UniProt P28335)	binding, radioligand binding	10 µM	inhibition	-2.02%

Some of these lines once more (sample 3):
Compound	protein remaining [%]
O=C1CCC(N2Cc3c(ccc4c3OCC43CCCN(Cc4ccccc4)CC3)C2=O)C(=O)N1 (stereo not shown)	92.9
